Published values of several laboratories.
Numbered parts are unrelated; each lists some results of a single study. “And” joins repeats or separate records; there may be more than shown. pIC50: −log10 of the molar value.
UniProt O95382, sequence (whole entry, looked up): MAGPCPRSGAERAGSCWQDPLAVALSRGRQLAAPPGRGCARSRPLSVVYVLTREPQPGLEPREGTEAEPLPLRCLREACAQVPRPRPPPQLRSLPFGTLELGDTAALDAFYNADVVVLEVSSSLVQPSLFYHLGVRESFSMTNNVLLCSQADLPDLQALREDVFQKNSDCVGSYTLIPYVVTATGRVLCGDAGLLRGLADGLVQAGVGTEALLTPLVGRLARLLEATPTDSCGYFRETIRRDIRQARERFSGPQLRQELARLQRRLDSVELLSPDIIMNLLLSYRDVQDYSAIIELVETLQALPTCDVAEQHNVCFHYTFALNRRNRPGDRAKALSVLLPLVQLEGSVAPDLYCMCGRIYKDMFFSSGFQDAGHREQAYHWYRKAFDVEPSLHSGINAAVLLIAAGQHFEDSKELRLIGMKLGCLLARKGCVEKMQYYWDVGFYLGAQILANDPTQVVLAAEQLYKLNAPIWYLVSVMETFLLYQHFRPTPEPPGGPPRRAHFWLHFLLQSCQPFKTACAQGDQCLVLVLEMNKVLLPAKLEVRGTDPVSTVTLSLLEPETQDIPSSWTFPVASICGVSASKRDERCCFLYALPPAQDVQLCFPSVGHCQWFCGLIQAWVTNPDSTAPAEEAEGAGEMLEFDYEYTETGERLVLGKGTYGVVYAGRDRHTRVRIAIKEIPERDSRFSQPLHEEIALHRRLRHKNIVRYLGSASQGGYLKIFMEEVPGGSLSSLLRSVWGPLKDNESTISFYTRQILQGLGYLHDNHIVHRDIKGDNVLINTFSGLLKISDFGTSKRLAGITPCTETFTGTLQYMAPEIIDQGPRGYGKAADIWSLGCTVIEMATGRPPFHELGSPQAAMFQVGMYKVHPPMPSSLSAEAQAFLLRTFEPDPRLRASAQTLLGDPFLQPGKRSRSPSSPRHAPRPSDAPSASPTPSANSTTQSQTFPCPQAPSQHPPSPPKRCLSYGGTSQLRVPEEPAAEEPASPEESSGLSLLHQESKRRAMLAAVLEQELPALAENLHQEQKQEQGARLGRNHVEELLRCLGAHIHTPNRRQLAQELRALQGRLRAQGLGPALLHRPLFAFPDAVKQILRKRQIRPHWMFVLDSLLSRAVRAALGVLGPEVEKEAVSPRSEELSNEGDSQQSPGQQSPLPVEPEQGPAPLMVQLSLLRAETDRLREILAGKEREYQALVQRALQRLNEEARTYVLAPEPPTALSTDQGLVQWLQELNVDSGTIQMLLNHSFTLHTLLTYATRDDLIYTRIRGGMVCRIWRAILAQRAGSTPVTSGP
UniProt P42336, sequence (whole entry, unmodified, looked up): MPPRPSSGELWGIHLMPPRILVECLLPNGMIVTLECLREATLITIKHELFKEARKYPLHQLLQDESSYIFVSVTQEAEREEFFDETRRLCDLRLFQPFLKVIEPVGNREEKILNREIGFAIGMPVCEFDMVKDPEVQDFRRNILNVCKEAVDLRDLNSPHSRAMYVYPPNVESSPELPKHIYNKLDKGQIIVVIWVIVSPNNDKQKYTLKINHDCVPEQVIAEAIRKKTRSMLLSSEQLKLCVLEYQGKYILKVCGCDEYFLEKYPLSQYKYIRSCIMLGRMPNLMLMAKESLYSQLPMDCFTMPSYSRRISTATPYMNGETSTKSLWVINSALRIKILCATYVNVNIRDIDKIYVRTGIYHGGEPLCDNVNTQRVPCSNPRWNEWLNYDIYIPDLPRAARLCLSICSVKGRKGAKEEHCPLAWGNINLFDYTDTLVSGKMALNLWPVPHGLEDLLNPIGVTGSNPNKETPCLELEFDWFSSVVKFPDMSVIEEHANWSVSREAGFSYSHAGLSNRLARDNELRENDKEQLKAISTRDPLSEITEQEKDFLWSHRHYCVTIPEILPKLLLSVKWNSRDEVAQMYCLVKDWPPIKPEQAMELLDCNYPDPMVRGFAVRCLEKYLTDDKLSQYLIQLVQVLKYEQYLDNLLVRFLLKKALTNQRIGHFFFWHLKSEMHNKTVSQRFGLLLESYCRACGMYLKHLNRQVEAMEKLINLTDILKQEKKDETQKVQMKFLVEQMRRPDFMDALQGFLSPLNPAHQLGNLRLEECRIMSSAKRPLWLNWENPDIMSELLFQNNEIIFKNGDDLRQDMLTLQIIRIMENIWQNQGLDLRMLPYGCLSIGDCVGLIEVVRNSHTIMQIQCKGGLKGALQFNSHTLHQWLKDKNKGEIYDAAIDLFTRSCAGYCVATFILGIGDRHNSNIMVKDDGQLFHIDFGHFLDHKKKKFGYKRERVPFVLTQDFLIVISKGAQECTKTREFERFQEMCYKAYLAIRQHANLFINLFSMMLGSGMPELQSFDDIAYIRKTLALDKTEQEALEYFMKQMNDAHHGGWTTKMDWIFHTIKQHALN
UniProt O00238, sequence (whole entry, looked up): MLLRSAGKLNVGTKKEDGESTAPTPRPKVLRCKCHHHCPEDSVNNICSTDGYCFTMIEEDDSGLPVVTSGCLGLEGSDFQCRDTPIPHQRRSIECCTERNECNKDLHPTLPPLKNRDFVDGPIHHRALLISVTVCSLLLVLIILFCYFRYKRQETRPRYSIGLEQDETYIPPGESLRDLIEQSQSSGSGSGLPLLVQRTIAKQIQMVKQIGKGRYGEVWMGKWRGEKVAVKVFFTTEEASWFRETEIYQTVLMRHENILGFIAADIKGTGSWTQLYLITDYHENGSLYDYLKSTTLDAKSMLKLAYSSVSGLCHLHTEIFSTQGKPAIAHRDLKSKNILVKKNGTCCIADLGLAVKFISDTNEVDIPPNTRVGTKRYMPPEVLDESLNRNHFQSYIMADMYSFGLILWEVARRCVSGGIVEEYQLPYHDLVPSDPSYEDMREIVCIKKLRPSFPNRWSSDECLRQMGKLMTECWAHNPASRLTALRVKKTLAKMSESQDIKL
UniProt Q99759, sequence (whole entry, looked up): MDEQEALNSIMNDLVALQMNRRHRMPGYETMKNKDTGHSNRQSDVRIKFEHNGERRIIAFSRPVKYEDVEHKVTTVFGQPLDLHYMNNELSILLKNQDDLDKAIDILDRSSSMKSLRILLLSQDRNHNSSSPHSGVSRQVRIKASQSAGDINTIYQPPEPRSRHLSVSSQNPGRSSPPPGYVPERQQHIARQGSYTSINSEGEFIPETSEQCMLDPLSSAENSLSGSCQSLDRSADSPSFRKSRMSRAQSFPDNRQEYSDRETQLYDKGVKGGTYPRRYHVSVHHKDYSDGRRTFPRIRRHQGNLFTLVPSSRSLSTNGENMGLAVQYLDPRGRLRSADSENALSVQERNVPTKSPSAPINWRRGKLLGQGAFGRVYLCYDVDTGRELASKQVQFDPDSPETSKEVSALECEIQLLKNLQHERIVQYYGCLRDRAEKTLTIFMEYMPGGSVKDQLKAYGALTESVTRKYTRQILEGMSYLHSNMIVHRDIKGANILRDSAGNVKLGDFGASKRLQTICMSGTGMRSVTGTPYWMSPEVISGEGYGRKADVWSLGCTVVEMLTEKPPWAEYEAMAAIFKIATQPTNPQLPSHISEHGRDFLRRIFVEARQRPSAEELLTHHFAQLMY
UniProt P51956, sequence (whole entry, looked up): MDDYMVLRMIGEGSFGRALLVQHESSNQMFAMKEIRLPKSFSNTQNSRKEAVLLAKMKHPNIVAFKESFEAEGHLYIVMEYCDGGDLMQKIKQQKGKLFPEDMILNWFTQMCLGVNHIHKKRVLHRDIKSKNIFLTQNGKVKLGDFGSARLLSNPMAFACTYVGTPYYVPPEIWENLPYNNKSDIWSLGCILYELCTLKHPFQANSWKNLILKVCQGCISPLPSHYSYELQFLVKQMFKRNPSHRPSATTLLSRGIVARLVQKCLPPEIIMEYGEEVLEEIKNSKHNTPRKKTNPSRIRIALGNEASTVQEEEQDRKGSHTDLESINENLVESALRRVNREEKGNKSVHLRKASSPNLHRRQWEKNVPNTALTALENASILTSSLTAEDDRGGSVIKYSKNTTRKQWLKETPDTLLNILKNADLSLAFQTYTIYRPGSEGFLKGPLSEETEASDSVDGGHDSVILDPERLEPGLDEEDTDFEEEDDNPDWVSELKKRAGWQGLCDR
UniProt P48730, sequence (whole entry, looked up): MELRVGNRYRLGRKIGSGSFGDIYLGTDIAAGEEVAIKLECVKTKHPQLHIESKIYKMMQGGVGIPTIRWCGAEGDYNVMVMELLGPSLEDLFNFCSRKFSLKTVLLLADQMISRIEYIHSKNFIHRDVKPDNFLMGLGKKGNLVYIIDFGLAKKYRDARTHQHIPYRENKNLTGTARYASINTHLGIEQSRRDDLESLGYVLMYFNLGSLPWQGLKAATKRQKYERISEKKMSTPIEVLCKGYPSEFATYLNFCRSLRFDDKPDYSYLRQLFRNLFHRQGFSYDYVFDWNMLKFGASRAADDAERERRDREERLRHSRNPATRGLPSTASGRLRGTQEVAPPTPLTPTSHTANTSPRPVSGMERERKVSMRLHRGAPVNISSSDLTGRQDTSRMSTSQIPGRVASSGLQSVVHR

Set 1
Species: mouse
Matrix: microsomes or S9
Concentration: 2 µM
Time: 0.5 h
Endpoint: remaining compound
SMILES = COc1ccc(C2c3cccn3-c3sc4c(c3CN2C(=O)NC(C)C)CCCC4)cc1 (stereo not drawn); result = 1.18%
SMILES = COc1ccc(S(=O)(=O)Nc2ncccn2)cc1; result = 67.1%
SMILES = COc1cccc(-c2cn3ncnc3n2Cc2cccc(Br)c2)c1; result = 1.76%
SMILES = CS(=O)(=O)N1CCN(Cc2ccc(Oc3cccc(C(F)(F)F)c3)c3c(N)n[nH]c23)CC1; result = 46.8%

Set 2
SMILES: O=S(=O)(NC1CCC(c2cc(F)ccc2F)(S(=O)(=O)c2ccc(Cl)cc2)CC1)C(F)(F)F (stereo not drawn)
Concentration: 1 µM
Endpoint: remaining binding
target = TTK (Homo sapiens, UniProt P33981); read-out = cell-free assay; technique = competition with immobilised ligand; result = 70%
target = FLT3 (Homo sapiens, UniProt P36888, D835V/ITD); read-out = cell-free assay; technique = competition with immobilised ligand; result = 97%
target = NEK5 (Homo sapiens, UniProt Q6P3R8); read-out = cell-free assay; technique = competition with immobilised ligand; result = 100%
target = FLT3 (Homo sapiens, UniProt P36888, D835H); read-out = cell-free assay; technique = competition with immobilised ligand; result = 90%
target = MAP3K3 (Homo sapiens, UniProt Q99759); read-out = cell-free assay; technique = competition with immobilised ligand; result = 100%
target = NEK3 (Homo sapiens, UniProt P51956); read-out = cell-free assay; technique = competition with immobilised ligand; result = 81%
target = CSNK1D (Homo sapiens, UniProt P48730); read-out = cell-free assay; technique = competition with immobilised ligand; result = 87%
target = EPHA8 (Homo sapiens, UniProt P29322); read-out = cell-free assay; technique = competition with immobilised ligand; result = 100%
target = MAP3K6 (Homo sapiens, UniProt O95382); read-out = cell-free assay; technique = competition with immobilised ligand; result = 82%
target = PIK3CA (Homo sapiens, UniProt P42336, Q546K); read-out = cell-free assay; technique = competition with immobilised ligand; result = 91%
target = MKNK2 (Homo sapiens, UniProt Q9HBH9); read-out = cell-free assay; technique = competition with immobilised ligand; result = 57%
target = MAP3K15 (Homo sapiens, UniProt Q6ZN16); read-out = cell-free assay; technique = competition with immobilised ligand; result = 78%
target = MAP4K2 (Homo sapiens, UniProt Q12851); read-out = cell-free assay; technique = competition with immobilised ligand; result = 100%
target = BMPR1B (Homo sapiens, UniProt O00238); read-out = cell-free assay; technique = competition with immobilised ligand; result = 100%
target = MAP3K1 (Homo sapiens, UniProt Q13233); read-out = cell-free assay; technique = competition with immobilised ligand; result = 100%
target = EGFR (Homo sapiens, UniProt P00533, T790M); read-out = cell-free assay; technique = competition with immobilised ligand; result = 93%
target = CDK19 (Homo sapiens, UniProt Q9BWU1); technique = competition binding; result = 100%

Set 3
Cell line: mouse MPNST tumor cells
Technique: high-content immunofluorescence imaging
Item: nuclear SOX9
Concentration: 10 µM
Time: 12 h
Setting: mean of 2 replicates
Relative to: DMSO control
Reading: higher = more nuclear SOX9
Endpoint: nuclear SOX9 intensity
Compound = COCC(=O)NCCc1c(C)[nH]c2ccc(O)cc12; result = 99 % of DMSO
Compound = Cc1cc2c(s1)Nc1ccccc1N=C2N1CCN(C)CC1; result = 118 % of DMSO and 108 % of DMSO
Compound = Cc1c[nH]c2ncnc(-c3ccc(NC(=O)N(CCO)c4ccccc4)cc3)c12; result = 82.1 % of DMSO

Set 4
Target: Beta-1 adrenergic receptor (ADRB1, Homo sapiens, UniProt P08588)
UniProt P08588, sequence (whole entry, looked up): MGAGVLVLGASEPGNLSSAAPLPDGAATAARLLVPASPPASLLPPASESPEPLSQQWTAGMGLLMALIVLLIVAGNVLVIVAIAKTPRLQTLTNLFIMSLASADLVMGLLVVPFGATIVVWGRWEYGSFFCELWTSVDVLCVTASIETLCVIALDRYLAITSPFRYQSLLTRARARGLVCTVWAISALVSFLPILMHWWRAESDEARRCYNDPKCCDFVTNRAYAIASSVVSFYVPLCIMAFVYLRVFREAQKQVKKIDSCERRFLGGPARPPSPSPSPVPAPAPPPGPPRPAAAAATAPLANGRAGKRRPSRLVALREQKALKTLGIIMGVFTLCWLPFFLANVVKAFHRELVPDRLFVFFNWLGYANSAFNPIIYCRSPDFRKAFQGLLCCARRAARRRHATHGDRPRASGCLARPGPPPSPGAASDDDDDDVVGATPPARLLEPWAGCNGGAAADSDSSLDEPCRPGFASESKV
Action: antagonist
Endpoint: pIC50
Compound = COc1ccccc1N1CCN(CCCCNC(=O)c2ccc(-c3cscn3)cc2)CC1; result = ≤ 4.00
Compound = Nc1nc(N)c2nc(-c3cccc(O)c3)cnc2n1; result = ≤ 4.00
Compound = Cn1c(COc2ccc(Cl)cc2)nnc1SCc1cc(=O)oc2cc(O)ccc12; result = ≤ 4.00

Set 5
Target: Myc proto-oncogene protein, bHLH-zipper, MAX partner unstated (MYC, Homo sapiens, UniProt P01106, residues 368-449)
UniProt P01106, sequence (368-449, looked up): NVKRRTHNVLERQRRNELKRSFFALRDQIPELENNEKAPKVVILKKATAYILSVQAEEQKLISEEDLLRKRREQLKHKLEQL
Technique: protein-binding microarray
Molecule type: double-stranded DNA, one strand shown
Matrix: in vitro
Concentration: not given
Setting: k-mer, scored over probes, only values ≥0.25
Reading: higher = stronger binding
Endpoint: E-score
Oligonucleotide = CGCCATGA; result = 0.295
Oligonucleotide = ACCTCGAG; result = 0.307
Oligonucleotide = CCGTCCAC; result = 0.285
Oligonucleotide = CACGCAGG; result = 0.34
Oligonucleotide = ACGGGTGG; result = 0.251
Oligonucleotide = CGTGGCAC; result = 0.434
Oligonucleotide = GCGAGCAC; result = 0.267
Oligonucleotide = GCACGTTA; result = 0.342

Further values, each from its own experiment
Structure (SMILES) = C[C@](N)(Cc1ccc(O)c(O)c1)C(=O)O; organism = Sarcocystis neurona; read-out = parasite growth; concentration = 10 µM; time = 96 h; endpoint = inhibition; result = -16.9%

Excerpt of the above (set 2):
target = CSNK1D (Homo sapiens, UniProt P48730); read-out = cell-free assay; technique = competition with immobilised ligand; result = 87%
target = EPHA8 (Homo sapiens, UniProt P29322); read-out = cell-free assay; technique = competition with immobilised ligand; result = 100%
